Assay results of several laboratories.
± marks the error that the study gave.
Cell line: HepG2

With `N[C@@H](Cc1c[nH]cn1)C(=O)NCCC(=O)O` the viability was 73.4% (LDH; 10 µg/mL, 6 h, 1% FBS).
Under “late apoptotic cells”, `O=C1/C(=C/c2ccc3c(c2)OCCO3)SC(=S)N1[C@@H]1O[C@H](CO)[C@@H](O)[C@H](O)[C@H]1O` is recorded as 15.5% (annexin V/PI; IC50, 48 h).
`O=C(/C=C(O)/C=C/c1cccs1)/C=C/c1cccs1` gave an intracellular ROS of 110 ± 10.4% (DCFH-DA, SRB-normalized; 10 µM; baseline: untreated cells).
Under “JC-1 red/green fluorescence ratio”, `[NH2][Pt]1([NH2])([Cl])([O]C(=O)C(Cl)Cl)[O]C(=O)C2(CC(=O)C2)C(=O)[O]1` is recorded as 0.98 (mitochondrial membrane potential; 30 µM, 48 h).
The EC50 of `O=C(CNc1ccc(Cl)c(S(=O)(=O)N2CCOCC2)c1)Nc1ccc(F)c(Cl)c1` is reported as 25.7 µM (cell growth or viability).
For `COc1cc(C2c3cc4c(cc3C=C(C=O)C2C(=O)OCC=Cc2ccccc2)OCO4)cc(OC)c1OC` (centres unmarked), the selectivity index was over 10 (baseline: CC50 HepG2 over amastigote EC50).
For `COc1cc(/C=C/C(=O)OCCCC[P+](c2ccccc2)(c2ccccc2)c2ccccc2)ccc1O`, the therapeutic index was 7.82 (SRB; 48 h; baseline: IC50 L02 over IC50 HepG2).
`CC(=O)O[C@@H]1CC[C@@]2(C)C(CC[C@]3(C)C2C(=O)C=C2C4[C@@H](C)[C@H](C)CC[C@]4(C)CC[C@]23C)[C@@]1(C)C(=O)N/N=C1/C(=O)Nc2ccccc21` (some centres unmarked) gave an IL-6 reduction of about 48% (ELISA; 1 µM, together with: APAP 10 mM; baseline: APAP alone).
`CCN(CC)C(=O)c1ccc(-c2cc(NCCCN3CCCCC3)c3ccccc3n2)cc1` — result for “insulin receptor phosphorylation”: “increased” (10 µM, overnight, together with: 10 nM insulin for 5 min).
The EC50 of `Cc1ccc(NCC(=O)Nc2ccon2)cc1S(=O)(=O)N1CCOCC1` is reported as over 25 µM (cell growth or viability).
`CCOC(=O)c1c(C)oc2nc(N3CCN(c4ccccc4)CC3)ccc12` gave an EC50 of over 50 µM (cell growth or viability; 48 h).
For `CC(=NN=c1sc(C(=O)c2ccccc2)nn1-c1ccccc1)c1ccc(S(=O)(=O)N2CCC(C)CC2)cc1`, “cells in %G0-G1” read 26.9% (flow cytometry; 3.31 µM, 72 h).
`Cc1ccc(NCC(=O)Nc2cccc(Cl)c2)cc1S(=O)(=O)N1CCOCC1` has an EC50 of over 25 µM (cell growth or viability).
`Cc1ccc2nc(-c3ccccc3)c(CN3CCOCC3)n2c1` gave an EC50 of over 50 µM (cell growth or viability; 48 h).
The viability of `N[C@@H](Cc1c[nH]cn1)C(=O)NCCC(=O)NCCC(=O)N[C@@H](Cc1c[nH]cn1)C(=O)O` is reported as 61.6% (LDH; 10 µg/mL, 6 h, 1% FBS).
`CN(C(=NN=C(c1ccccc1)c1ccccn1)[S][Ga]([Cl])[Cl])C1CCCCC1` — result for “G2 phase cells”: “decreased” (PI flow cytometry; 5 µM, 24 h; baseline: vehicle).
Under protein level, `C=C1C(=O)C23CCC4C(C)(C)CCCC4(C)C2C(O)CC1C3` (single isomer, unassigned) is recorded as “no effect” (western blot, refers to: GPX4; 2.5 µM, 24 h).
Under “MDC fluorescence intensity”, `CC(=O)O[C@H]1CC[C@]2(C)[C@H]3C(=O)C=C4[C@@H]5C[C@@](C)(C(=O)OCc6ccccc6)CC[C@]5(C)CC[C@@]4(C)[C@]3(C)CC[C@H]2C1(C)C` is recorded as 1760 (autophagy, flow cytometry; 4 µM, 48 h, unit not given; baseline: untreated).
Under “cells in S phase”, `Cc1c(C(=O)NNC(=S)Nc2ccc(Cl)cc2)nnn1Cc1nc2ccccc2[nH]1` is recorded as 49.1% (PI flow cytometry; concentration not given).
`Cc1ccc(Nc2ncc3c(n2)N(C2CCCCC2)C(=O)N(c2cc(NC(=O)c4cccc(C(F)(F)F)c4)ccc2C)C3)cn1` has a GI50 of 1580 nM (cell growth or viability, ATP luminescence; 72 h).
The EC50 of `Cc1ccc2nc(-c3ccc(F)c(F)c3)c(CN3CCC(c4ccccc4)CC3)n2c1` is reported as over 50 µM (cell growth or viability; 48 h).
`Cc1cc2nc(-c3cc4ccccc4nc3Cl)[nH]c2cc1C`: intracellular Ca2+ “increased” (concentration not given, 24 h; baseline: untreated).
`Cc1ccc2nc(-c3ccccc3)c(CN3CC[C@H](F)C3)n2c1` has an EC50 of over 50 µM (cell growth or viability; 48 h).
`CSC(=S)N/N=C(\C)c1ccc(S(=O)(=O)N2CCC(C)CC2)cc1` — result for “cells in %G0-G1”: 32.6% (flow cytometry; 3.31 µM, 72 h).
`Cc1ccc(Nc2ncc3c(n2)N(C)C(=O)N(c2cc(NC(=O)c4ccc(CN5CCN(C)CC5)c(C(F)(F)F)c4)ccc2C)C3)cn1` has a GI50 of 1320 nM (cell growth or viability, ATP luminescence; 72 h).
`NCCC(=O)N[C@@H](Cc1c[nH]cn1)C(=O)N1CCC[C@H]1C(=O)N[C@@H](Cc1c[nH]cn1)C(=O)NCCC(=O)O` has a viability of 84.4% (LDH; 10 µg/mL, 6 h, 1% FBS).
For `CC(=O)O[C@@H]1CC[C@@]2(C)C(CC[C@]3(C)C2C(=O)C=C2C4[C@@H](C)[C@H](C)CC[C@]4(C)CC[C@]23C)[C@@]1(C)C(=O)OCC(=O)Oc1cc(C)ccc1C(C)C` (some centres unmarked), the inhibition was about 52% (IL-1β production, ELISA, refers to: IL-1β; 10 µM, together with: acetaminophen 10 mM; baseline: acetaminophen-treated cells).
With `O=C(CNc1ccc(F)c(S(=O)(=O)N2CCOCC2)c1)Nc1ccc(F)c(Cl)c1` the EC50 was over 25 µM (cell growth or viability).
`CSC(=NN=C(C)c1ccc(S(=O)(=O)N2CCC(C)CC2)cc1)N(C)C`: “cells in pre-G1 phase” 22% (flow cytometry; 3.31 µM (IC50), 72 h).
`C=C1CC(OC(=O)C(C)(O)CCl)C2C(=C)C(=O)OC2C2C1CC(O)C2(O)CCl` (centres unmarked) gave an apoptotic cells of 79.7% (annexin V-FITC/PI; concentration not given, 48 h).
`O=C(/C=C/c1ccc(O)c(O)c1)OCCCC[P+](c1ccccc1)(c1ccccc1)c1ccccc1` has an apoptotic cells of 63.9% (annexin V-FITC/PI flow cytometry; 20 µM, 24 h).
`Cc1ccc(NCC(=O)Nc2nccs2)cc1S(=O)(=O)N1CCOCC1` gave an EC50 of over 25 µM (cell growth or viability).
`CCN1C(=O)N(c2cc(NC(=O)c3cccc(C(F)(F)F)c3)ccc2C)Cc2cnc(Nc3ccc(C)nc3)nc21` gave a GI50 of 1310 nM (cell growth or viability, ATP luminescence; 72 h).
For `Cc1ccc(NCC(=O)Nc2cnccn2)cc1S(=O)(=O)N1CCOCC1`, the EC50 was 4.98 µM (cell growth or viability).
`CCOc1cccc2c1[O][Pt-2]1([Cl])[N+](=C2)CC[NH+]1c1ccccc1` (centres unmarked) — result for “cells in G0/G1 phase”: 21 to 27% (flow cytometry PI; concentration not given, 24 h).
`Cc1ccc2nc(-c3ccc(Cl)cc3)c(CN3CCN(c4ccc(F)cc4)CC3)n2c1` gave an EC50 of over 50 µM (cell growth or viability; 48 h).
`Cc1ccc(NCC(=O)Nc2ccc(F)c(Cl)c2)cc1S(=O)(=O)N1CC2CC1CO2` (centres unmarked) has an EC50 of over 25 µM (cell growth or viability).
`CCC[C@H]1CC[C@H](c2ccc(NC(=S)NC[C@@H]3[C@@H](O)[C@@H](O)[C@H]4[C@H](O)CCCN43)cc2)CC1`: “ConA binding to cell surface” “increased” (fluorescent lectin imaging; 10 µM, 48 h).

Repeated from above:
`O=C(/C=C(O)/C=C/c1cccs1)/C=C/c1cccs1` gave an intracellular ROS of 110 ± 10.4% (DCFH-DA, SRB-normalized; 10 µM; baseline: untreated cells).
Under “JC-1 red/green fluorescence ratio”, `[NH2][Pt]1([NH2])([Cl])([O]C(=O)C(Cl)Cl)[O]C(=O)C2(CC(=O)C2)C(=O)[O]1` is recorded as 0.98 (mitochondrial membrane potential; 30 µM, 48 h).
The EC50 of `O=C(CNc1ccc(Cl)c(S(=O)(=O)N2CCOCC2)c1)Nc1ccc(F)c(Cl)c1` is reported as 25.7 µM (cell growth or viability).
